Measurements of several laboratories.
Each numbered part is a random draw from the data of one study; scales do not carry over between parts. Changes are numbered by the printed parent chain.

Series 1 — technique: RNAcompete; molecule type: RNA; matrix: in vitro; concentration: 20 nM; notes: 7-mer, probes averaged, single round; relative to: mean of 7-mers; reading: higher = stronger binding
Target: PABPC1L2, full length, GST fusion (mouse, UniProt A0ABA7IW68)
Residues (chain): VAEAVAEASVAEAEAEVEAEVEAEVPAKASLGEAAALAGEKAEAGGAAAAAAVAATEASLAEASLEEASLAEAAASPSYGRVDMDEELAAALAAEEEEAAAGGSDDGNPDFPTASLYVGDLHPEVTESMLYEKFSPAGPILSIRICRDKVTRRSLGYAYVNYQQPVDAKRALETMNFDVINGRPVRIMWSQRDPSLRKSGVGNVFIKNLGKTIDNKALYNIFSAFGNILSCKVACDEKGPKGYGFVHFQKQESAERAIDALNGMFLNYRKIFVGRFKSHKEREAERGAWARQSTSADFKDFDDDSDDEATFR
Sequence | 7-mer Z-score
CGCCAUA | -0.19
CUCGAUA | -0.128
AUUAACC | -0.0663
UACAGUG | -0.135
UGCGUAC | -0.356

Series 2 — technique: protein-binding microarray; molecule type: double-stranded DNA, one strand shown; matrix: in vitro; concentration: 2200 nM top; notes: 60-bp whole probe; added: salmon DNA 0.4 mg/ml; relative to: random background probes; reading: higher = stronger binding; constant ends, left off below: GCCTAGCAC … GTCTTGATTCGCTTGACGCTGCTG
Target: Interferon regulatory factor 7, full length, phosphomimetic (IRF7, Homo sapiens, UniProt Q92985, residues 1-503, S471D/S472D/S475D/S476D/S477D/S483D/S484D/S487D)
Construct (chain): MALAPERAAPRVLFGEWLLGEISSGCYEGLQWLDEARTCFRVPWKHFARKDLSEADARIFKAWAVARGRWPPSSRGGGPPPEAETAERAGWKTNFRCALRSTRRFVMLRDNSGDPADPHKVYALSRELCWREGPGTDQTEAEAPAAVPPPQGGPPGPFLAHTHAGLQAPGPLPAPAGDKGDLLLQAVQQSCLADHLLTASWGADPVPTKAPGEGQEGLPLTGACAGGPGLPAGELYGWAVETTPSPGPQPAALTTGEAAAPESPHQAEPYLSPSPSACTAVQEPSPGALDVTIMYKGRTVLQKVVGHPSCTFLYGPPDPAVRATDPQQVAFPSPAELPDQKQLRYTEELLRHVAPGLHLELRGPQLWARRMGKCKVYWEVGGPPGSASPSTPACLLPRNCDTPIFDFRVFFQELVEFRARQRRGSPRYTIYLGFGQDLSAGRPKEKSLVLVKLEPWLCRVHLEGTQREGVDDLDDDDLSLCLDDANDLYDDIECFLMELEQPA
Sequence | fitted relative affinity [z-score]
GACGGACTTGACTTTCGGGACGTGCTA | 2.52
GACGGTTTCGGTTCCGGAACGTGCTAG | 11.4
TGCAACATCCCAATGGCCCTGTGCTAG | 0.451
CTTCATGTTGCTCTCCGGGGGTGCTAG | 1.26
GACGATTTCAGTTTCGCGACGTGCTAG | 4.18
GACGGTATCGGTTTCGGGTCGTGCTAG | 7.06
TTAGAACTGGGGGCTGGATTAGTGCTA | 0.479
TATCTTATGATATATATAATAGTGCTA | 0.0395

Series 3 — technique: DHFR PCA, deep sequencing; matrix: yeast; added: (+)-ABA 0.11 µM; relative to: wild-type fitted maximum; reading: higher = stronger binding
Target: ABI1, truncated, D143A, DHFR fusion (Arabidopsis thaliana)
Notes: methotrexate growth selection, single substitutions
Starting sequence: PYL1, truncated, DHFR fusion (Arabidopsis thaliana); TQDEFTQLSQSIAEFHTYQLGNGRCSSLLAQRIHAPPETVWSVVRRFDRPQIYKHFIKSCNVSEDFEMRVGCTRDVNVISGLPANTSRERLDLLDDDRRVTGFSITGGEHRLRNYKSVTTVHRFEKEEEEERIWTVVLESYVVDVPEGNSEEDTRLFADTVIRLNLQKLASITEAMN
Substitution | relative binding score [%]
S9T | 37.8
N177C | 62.9
G81W | 1.92
V43K | -12.8

Single results of other studies
Substance | target | assay | system | setting | scale | quantity | value
PhoQ, residues 284 288 289 292 302 303 NLALSC | PhoP, residues 12 14 15 18 19 LYFRQ (Escherichia coli, UniProt P23836) | Sort-seq, measured: YFP reporter | E. coli | PhoQ-PhoP variant library, added: 10 µM Mg2+ | relative to: high Mg2+ state, higher = stronger signaling | fold induction | 0.842

Some of these lines once more (series 1):
Sequence | 7-mer Z-score
CGCCAUA | -0.19
AUUAACC | -0.0663
